Assay results gathered from unrelated publications.
Parts stem from different laboratories: compare values within a part only.

Block 1
Target: Sal-like protein 4, full length isoform A (SALL4, Homo sapiens, UniProt Q9UJQ4, residues 1-1053)
Chain of UniProt Q9UJQ4 (whole entry, looked up): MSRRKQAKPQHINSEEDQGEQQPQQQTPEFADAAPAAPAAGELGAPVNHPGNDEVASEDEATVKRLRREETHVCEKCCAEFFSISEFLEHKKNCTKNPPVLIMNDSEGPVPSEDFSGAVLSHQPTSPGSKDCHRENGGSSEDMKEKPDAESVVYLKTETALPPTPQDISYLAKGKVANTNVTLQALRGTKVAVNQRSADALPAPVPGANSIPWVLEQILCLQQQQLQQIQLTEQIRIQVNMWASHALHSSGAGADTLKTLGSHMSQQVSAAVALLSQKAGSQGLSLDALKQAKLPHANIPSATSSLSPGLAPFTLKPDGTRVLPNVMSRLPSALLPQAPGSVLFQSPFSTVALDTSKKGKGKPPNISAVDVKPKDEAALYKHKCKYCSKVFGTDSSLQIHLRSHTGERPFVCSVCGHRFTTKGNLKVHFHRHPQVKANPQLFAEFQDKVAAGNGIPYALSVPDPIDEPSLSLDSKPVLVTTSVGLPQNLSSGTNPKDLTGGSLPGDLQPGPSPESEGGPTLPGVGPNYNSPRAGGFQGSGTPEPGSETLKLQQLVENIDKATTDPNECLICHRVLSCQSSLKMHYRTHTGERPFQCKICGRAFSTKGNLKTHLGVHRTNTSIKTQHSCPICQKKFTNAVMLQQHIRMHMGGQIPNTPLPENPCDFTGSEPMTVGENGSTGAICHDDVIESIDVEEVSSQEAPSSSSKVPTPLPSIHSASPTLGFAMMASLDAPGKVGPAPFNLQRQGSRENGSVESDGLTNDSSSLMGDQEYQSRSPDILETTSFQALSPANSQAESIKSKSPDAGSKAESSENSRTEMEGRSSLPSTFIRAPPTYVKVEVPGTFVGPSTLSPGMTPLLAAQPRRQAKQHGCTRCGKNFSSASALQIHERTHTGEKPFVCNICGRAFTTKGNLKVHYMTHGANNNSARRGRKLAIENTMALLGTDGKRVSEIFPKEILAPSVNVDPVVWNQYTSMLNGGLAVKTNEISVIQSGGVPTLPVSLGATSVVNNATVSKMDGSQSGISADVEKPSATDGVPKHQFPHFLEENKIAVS
Technique: universal PBM
Form: double-stranded DNA, one strand shown
Sample: in vitro
Concentration: 600 nM
Setting: 8-mer, flanks averaged, mean of replicates
Direction: higher = stronger binding
Oligonucleotide	E-score
CTATTGCC	0.0291
ATCGCTCC	-0.0716
GATGAAGA	0.197
GTCCCTGA	-0.175
CTCCAAGA	-0.0171
AGTGTGGA	0.0689
CACATTGA	0.18
AGTTTCGA	-0.0264
CGCACCAA	-0.201
ATTCGACG	0.0456
CCAAAAGC	-0.152
AGCCTTCG	-0.207
ACAGTCCC	-0.239
CACCAAAA	0.175
ACCTGAAG	0.0146
AAAAGAGA	0.0855

Block 2
Substance: PhoQ, residues 284 288 289 292 302 303 SQSLSM
Technique: Sort-seq
Measured: YFP reporter
Sample: E. coli
Setting: PhoQ-PhoP variant library
Together with: 10 µM Mg2+
Relative to: high Mg2+ state
Direction: higher = stronger signaling
target	fold induction
PhoP, residues 12 14 15 18 19 QYFSL (Escherichia coli, UniProt P23836)	2.82
PhoP, residues 12 14 15 18 19 NYFRM (Escherichia coli, UniProt P23836)	9.21
PhoP, residues 12 14 15 18 19 TQALL (Escherichia coli, UniProt P23836)	9.27

Block 3
Target: Fragile X messenger ribonucleoprotein 1, C-terminal low-complexity region (Fmr1, Mus musculus, UniProt P35922)
Technique: RNA Bind-n-Seq
Form: RNA
Sample: in vitro
Concentration: 200 nM
Setting: whole 134-nt RNA, ends assumed
Together with: 150 mM KCl
Relative to: input library
Direction: higher = stronger binding
Constant ends, left off below: GGGAGUUCUACAGUCCGACGAUC … UGGAAUUCUCGGGUGUCAAGG
Oligonucleotide	log2 enrichment
UGGCCCUGGUGGCAUGCGGGGAGGAAGAGGUGGCCCCAUGGAUCGUGGUGGUCCCGGUGGAAUGUUCAGAGGUGGCCGUGGUGGAGACAG	0.0309
CAAGUCCUGUGCUACACAUCGUAUGUACCGAAUCGGAAAGGGAAAGGGAAAGGGGAAAGUAUUAUGUUACGCCGUUCGGAUCUGCACUUC	-0.0484
UUCCUCAAGUCCUGUGCUACACAUCGUAUGUACCGAAUCGGUGGUGGGUGGAAAGUAUUAUGUUACGCCGUUCGGAUCUGCACUUCCAGC	-0.0293
UCCUGUGCUACACAUCGUAUGUACCGAAUCGGUUUUUUGGUUUUUUGGGGUUUUUUGGGGAAAGUAUUAUGUUACGCCGUUCGGAUCUGC	-0.308
CACAGACACCACGCACCCACACAGACACAGAGGGAAGGGGUUGGGAUGGGGACAGGGUGCACAGCAGGGCGGGGUAGGACCCCAGCCCCU	1.23
CCUCAAGUCCUGUGCUACACAUCGUAUGUACCGAAUCGGAAAGGUUUGGAGGAAAGUAUUAUGUUACGCCGUUCGGAUCUGCACUUCCAG	0.0798
GCAGGAAGUAAAAACAAAUGGAAAUACUUCGGAUAGUGGCAGGGGUGGGGGUUGCUAAGGAAAGGGUGGGAUGGGAGUGGGUAAAGAGUU	0.295
ACCAUGCAGGUGGGCAUCUUUGGGAAGUGGGGCAAGGGGGGGAUAGGGAGGGGGGUAACAAAAUGGGAACAGGUGGUCCCAGGUCGUUUC	0.404
AGUCCUGUGCUACACAUCGUAUGUACCGAAUCGGGAAAAAAAGGGAAAAAGGGAGGGAAAGUAUUAUGUUACGCCGUUCGGAUCUGCACU	0.233
UGUACUCGGAAGUUUCACUUACCAUCGACCACUCUCUGAUUCCGGAGGAGAGGCUCUCGCCCACCCCAUCCAUGCAGGAUGGGCUCGACC	-0.194
CCUGUGCUACACAUCGUAUGUACCGAAUCGGGAAAAAAAGGGAAAAAAAGGGAAAAAGGGAAAGUAUUAUGUUACGCCGUUCGGAUCUGC	-0.86
GCAGGAAGUAAAAACAAAUGGAAAUGCUAAAGAUAGUGGCAGGGGUGGGGGUUGCUAAGGAAAGGGUGGGAUGGGAGUGGGUAAAGAGUU	0.525
ACCAUGCAGGUGGGCAUCUUUGGGAAGUGGGGCAAGGGGGGGAUAGGGAGGGGGGUAACACUUUGGGAACAGGUGGUCCCAGGUGGUUUC	0.816
UAACUUUAGAGGAGGCUCUGAUGGAUAUGGCAGUGGACGUGGAUUUGGGGAUGGCUAUAAUGGGUAUGGAGGAGGACCUGGAGGUGGCAA	0.374

Block 4
Target: RNA binding protein fox-1 homolog 2, RRM domain, GST-SBP tag (RBFOX2, Homo sapiens, UniProt O43251-10, residues 100-194)
Technique: RNA Bind-n-Seq
Form: RNA
Sample: in vitro
Concentration: 365 nM
Setting: natural RNA segment, single round, ends assumed
Relative to: no-protein control
Direction: higher = stronger binding
Constant ends, left off below: GGGAGUUCUACAGUCCGACGAUC … UGGAAUUCUCGGGUGCCAA
Target sequence (chain): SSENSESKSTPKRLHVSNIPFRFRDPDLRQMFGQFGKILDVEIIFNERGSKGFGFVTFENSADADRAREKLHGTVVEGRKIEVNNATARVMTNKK
Oligonucleotide	RBNS enrichment (R)
AGCUCUAACUCUGAGAGCCUUUUGAGGAUGGGUGCUAGAGGGCCCGUGCCCCUAAAACAGCAGGCAGCUUCCCCCCCACCCUGGUGUGCACACCAGGAGUGUUUGCACAG	0.274
GCUGUGGGUUUGUCAUAGAUAGCUCUUAUUAUUUUGAAAUACACCCCAUCAAUCCCUAAUUUAUUGAGAGUUUUUAGCAUGAAGGGUUGUUGAAUUUUGUCAAAGGCUUU	7.81
UGUUUUUAAUGUGCAGGUAUUGAAUUAUAUGGUCUGACUUAAAUCAUAACUAGACUUGAGUGGGCUGAAUAAACCACUUCACUAACUUGAAGUUCAAAAGGAUGGAAAAU	0.331
UGGUCUAUUUUAACCUUGAAAGUAAAAAUGUAUAUUUUUUCACUACAAGUACAUUGAACAGUAAAAAGUGUAACAGCAAAGUAUAUAUUUGAUGCCUUCUGUCUUUUCAU	0.476
CAGUUUGGUCUGCAUUUGUUAGAAGUGUAACUCCUAACAACCCAAAGACCUAUUUAAUAAUUGGUGCAUAAAUGAAAGUAGUACUGUAUACUUGAAACUGUUUAAGUACA	0.399
UUGAGAUCAGAUCAUAACUCACUUGCCCAGAGGCAGCAGAAAUCUGAUCCUACUACUGGAGCUUAAAAAUAACAAUUAAUGAAAAGUGUUAGAAACAAGGCUACAGUUUU	0.36
CUGAGGCUGAGGGUAGAUGGGUUCAGUUCAGUGUCUCCUGCCCAGACUGGACAUCUUGGUCUUUUUCUCAGGUCUGAAAGGAACCAUUUUUUGGUAUGAUAAAGACCCCA	0.319
UGAAGGCCACUCAGAGCAUCUUGCAGUCACAGCUGUUCCUGAGCCUGAGGCCAGAAGAUUCCCUAACCCAGGACUUUGAAGCCAACCUAGGCAACAUGAUGGGGACCCUC	0.405
UGUAAUUAUAUACACAACAAAUAUUAGUGACUAGUUUUUGUAUUUGACAACUGUUUACCAUUGUGUUUAGGUUAUAUUCUAUAAAUACUCUUUAUAUGCAUAUAUAUGGC	0.388

For quick reference, copied from above (block 3):
Oligonucleotide	log2 enrichment
ACCAUGCAGGUGGGCAUCUUUGGGAAGUGGGGCAAGGGGGGGAUAGGGAGGGGGGUAACAAAAUGGGAACAGGUGGUCCCAGGUCGUUUC	0.404
AGUCCUGUGCUACACAUCGUAUGUACCGAAUCGGGAAAAAAAGGGAAAAAGGGAGGGAAAGUAUUAUGUUACGCCGUUCGGAUCUGCACU	0.233
UGUACUCGGAAGUUUCACUUACCAUCGACCACUCUCUGAUUCCGGAGGAGAGGCUCUCGCCCACCCCAUCCAUGCAGGAUGGGCUCGACC	-0.194
CCUGUGCUACACAUCGUAUGUACCGAAUCGGGAAAAAAAGGGAAAAAAAGGGAAAAAGGGAAAGUAUUAUGUUACGCCGUUCGGAUCUGC	-0.86
GCAGGAAGUAAAAACAAAUGGAAAUGCUAAAGAUAGUGGCAGGGGUGGGGGUUGCUAAGGAAAGGGUGGGAUGGGAGUGGGUAAAGAGUU	0.525
